Assay results from different studies.
Each line is one published result; not all experiments were run side by side. ± gives the spread as reported.
Cnr2: Cannabinoid receptor 2 (Cnr2, Mus musculus, UniProt P47936)
Sequence of UniProt P47936 (whole entry, looked up): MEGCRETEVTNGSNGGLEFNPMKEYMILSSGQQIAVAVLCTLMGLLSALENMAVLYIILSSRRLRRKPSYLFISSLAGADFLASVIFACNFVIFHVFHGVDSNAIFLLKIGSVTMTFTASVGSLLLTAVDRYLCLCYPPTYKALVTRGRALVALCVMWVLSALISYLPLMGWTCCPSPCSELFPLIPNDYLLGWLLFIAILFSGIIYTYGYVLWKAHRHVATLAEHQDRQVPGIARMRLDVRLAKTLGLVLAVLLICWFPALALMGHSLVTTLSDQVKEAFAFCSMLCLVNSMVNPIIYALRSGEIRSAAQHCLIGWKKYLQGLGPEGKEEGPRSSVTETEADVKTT
Voltage-gated sodium channel: Voltage-gated sodium channel (Musca domestica, UniProt Q25439)
G-protein coupled receptor 39: G-protein coupled receptor 39 (Mus musculus, UniProt Q5U431)
Sequence of UniProt Q5U431 (whole entry, looked up): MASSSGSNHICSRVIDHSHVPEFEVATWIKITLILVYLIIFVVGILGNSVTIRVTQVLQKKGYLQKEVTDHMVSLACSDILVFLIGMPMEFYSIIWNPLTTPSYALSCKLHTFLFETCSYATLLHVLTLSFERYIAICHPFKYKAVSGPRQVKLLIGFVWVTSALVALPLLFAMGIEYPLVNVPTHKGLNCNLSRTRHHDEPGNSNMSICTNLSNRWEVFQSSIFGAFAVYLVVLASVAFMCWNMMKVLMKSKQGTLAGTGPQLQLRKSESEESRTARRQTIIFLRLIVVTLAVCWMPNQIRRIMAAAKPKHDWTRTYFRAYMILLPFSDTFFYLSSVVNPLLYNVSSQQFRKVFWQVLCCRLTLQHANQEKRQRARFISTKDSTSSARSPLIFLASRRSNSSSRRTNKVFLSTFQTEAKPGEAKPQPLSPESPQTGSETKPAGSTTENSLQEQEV
MC4R: Melanocortin receptor 4 (MC4R, Homo sapiens, UniProt P32245)
Sequence of UniProt P32245 (whole entry, looked up): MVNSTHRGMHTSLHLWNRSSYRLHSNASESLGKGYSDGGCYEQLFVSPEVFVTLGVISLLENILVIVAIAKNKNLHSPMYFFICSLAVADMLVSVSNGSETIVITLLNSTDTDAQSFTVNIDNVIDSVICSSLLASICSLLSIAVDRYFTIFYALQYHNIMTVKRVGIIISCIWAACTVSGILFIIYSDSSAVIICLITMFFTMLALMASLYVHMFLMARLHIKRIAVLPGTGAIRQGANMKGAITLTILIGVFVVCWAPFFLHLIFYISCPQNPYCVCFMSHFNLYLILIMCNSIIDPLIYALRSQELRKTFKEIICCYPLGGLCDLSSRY
Sequence of UniProt P41143 (whole entry, unmodified, looked up): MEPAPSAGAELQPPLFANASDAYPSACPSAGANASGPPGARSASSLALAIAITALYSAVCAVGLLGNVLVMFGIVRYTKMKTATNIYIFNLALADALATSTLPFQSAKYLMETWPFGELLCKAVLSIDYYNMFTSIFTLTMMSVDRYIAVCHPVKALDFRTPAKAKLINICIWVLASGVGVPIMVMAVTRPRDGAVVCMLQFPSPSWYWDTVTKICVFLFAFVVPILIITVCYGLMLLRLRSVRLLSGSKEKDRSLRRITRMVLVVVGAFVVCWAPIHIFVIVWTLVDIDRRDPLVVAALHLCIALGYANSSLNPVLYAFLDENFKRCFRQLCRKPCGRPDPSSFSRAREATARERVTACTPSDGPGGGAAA
Sequence of UniProt Q9UKP6 (whole entry, unmodified, looked up): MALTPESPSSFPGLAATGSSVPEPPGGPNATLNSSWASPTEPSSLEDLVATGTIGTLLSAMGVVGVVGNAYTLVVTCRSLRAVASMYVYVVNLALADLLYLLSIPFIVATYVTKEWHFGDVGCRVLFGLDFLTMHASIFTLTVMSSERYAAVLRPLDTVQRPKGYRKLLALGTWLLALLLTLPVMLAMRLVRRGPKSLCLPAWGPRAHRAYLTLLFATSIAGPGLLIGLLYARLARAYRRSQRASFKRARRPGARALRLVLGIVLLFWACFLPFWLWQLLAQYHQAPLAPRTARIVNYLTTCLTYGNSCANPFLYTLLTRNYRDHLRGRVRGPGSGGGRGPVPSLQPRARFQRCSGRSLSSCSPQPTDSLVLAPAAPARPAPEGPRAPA
Sequence of UniProt Q704Y3 (whole entry, unmodified, looked up): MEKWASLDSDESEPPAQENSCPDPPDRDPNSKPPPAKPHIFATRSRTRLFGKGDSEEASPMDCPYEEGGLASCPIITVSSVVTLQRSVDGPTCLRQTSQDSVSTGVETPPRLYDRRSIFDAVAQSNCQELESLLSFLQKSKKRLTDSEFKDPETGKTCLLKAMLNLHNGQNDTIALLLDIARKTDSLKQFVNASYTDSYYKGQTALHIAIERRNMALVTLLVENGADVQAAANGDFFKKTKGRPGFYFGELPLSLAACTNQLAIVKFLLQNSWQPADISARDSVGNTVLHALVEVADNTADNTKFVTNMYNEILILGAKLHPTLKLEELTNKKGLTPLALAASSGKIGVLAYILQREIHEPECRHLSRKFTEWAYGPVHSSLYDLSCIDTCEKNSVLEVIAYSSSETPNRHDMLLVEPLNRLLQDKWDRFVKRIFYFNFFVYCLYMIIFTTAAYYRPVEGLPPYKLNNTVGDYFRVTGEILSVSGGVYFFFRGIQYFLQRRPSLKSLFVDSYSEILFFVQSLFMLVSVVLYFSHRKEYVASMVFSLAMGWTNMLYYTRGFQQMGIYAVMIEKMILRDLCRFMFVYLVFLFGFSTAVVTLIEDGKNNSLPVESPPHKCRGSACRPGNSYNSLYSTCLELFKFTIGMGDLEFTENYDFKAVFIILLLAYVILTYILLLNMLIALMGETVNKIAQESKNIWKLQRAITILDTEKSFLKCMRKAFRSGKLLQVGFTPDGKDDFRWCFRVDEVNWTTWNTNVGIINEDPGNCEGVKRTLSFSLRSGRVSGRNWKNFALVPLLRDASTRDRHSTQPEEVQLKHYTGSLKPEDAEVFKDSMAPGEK
Sequence of UniProt O88457 (whole entry, looked up): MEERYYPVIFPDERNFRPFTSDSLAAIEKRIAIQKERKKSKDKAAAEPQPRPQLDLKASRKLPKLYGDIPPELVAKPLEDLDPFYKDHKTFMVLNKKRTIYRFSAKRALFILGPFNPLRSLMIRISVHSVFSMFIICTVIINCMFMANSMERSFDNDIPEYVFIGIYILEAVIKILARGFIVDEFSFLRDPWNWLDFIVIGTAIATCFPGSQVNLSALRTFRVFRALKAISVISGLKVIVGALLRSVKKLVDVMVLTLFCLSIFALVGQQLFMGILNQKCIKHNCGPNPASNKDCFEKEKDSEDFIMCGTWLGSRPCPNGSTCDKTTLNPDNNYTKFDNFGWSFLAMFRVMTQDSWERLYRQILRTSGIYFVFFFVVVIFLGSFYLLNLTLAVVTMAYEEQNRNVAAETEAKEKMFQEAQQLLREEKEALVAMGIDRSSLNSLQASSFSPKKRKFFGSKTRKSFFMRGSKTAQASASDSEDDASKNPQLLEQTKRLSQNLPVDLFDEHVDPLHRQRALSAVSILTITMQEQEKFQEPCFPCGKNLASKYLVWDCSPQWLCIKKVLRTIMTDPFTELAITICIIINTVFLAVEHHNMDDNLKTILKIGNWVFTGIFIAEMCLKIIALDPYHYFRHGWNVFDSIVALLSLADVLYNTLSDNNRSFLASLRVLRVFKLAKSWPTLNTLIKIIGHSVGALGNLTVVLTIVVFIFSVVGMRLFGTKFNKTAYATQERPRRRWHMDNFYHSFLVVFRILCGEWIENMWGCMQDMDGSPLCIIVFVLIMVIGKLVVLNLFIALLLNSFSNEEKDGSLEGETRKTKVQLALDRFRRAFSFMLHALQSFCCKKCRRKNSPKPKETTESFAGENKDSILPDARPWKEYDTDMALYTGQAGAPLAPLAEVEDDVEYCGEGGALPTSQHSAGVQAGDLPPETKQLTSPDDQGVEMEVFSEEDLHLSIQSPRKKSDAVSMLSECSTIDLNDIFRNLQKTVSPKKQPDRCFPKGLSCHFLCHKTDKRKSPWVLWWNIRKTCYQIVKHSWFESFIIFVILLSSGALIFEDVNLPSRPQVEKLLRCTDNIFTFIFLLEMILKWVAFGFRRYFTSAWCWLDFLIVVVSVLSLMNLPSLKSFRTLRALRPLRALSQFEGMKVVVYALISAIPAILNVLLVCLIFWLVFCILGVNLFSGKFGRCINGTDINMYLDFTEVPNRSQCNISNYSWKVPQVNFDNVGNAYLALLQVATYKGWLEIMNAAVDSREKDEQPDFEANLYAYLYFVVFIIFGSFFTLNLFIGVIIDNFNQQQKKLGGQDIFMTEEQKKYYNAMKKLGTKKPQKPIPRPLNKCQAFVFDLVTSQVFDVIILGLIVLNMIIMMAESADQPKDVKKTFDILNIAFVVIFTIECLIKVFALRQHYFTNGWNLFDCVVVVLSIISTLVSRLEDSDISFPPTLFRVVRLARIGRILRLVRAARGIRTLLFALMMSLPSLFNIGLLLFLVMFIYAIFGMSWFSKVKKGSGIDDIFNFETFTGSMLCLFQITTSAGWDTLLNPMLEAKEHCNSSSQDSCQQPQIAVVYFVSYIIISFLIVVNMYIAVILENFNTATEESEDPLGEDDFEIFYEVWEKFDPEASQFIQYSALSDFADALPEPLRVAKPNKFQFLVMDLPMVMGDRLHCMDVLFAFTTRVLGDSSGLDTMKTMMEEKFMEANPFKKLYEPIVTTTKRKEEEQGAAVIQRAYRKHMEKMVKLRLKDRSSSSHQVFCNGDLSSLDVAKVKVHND
Sequence of UniProt P18825 (whole entry, looked up): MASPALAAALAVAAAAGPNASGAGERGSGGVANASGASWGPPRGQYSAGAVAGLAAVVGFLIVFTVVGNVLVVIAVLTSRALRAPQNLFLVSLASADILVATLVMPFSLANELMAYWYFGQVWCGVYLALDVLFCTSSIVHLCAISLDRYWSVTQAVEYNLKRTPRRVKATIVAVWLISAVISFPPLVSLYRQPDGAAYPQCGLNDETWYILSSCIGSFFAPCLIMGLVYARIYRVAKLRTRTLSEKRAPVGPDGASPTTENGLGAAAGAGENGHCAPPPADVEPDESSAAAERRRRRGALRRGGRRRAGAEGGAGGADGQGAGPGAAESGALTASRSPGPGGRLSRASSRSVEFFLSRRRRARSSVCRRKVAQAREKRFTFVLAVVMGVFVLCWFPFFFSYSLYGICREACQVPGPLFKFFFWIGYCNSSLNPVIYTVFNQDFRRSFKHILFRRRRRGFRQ

With `Cc1ccc(C)c(OCCn2cc(C(=O)O)c3ccccc32)c1` the EC50 was 355 nM (CDC42 (Homo sapiens, UniProt P60953, Q61L); GTP binding, activator, flow cytometry bead; EDTA buffer, added: 100 nM BODIPY-GTP).
`COC1C2(O)C(=O)N3C=CC(C)(C)c4[nH]c5ccccc5c4C=C3C(=O)N2C23C(C)C(C)(C)N2c2ccccc2C13O` (stereo not drawn) gave an EC50 of 3720 nM (uncharacterized protein (Ixodes scapularis, UniProt A0A0N9E2I2); ion current, agonist, two-electrode voltage clamp; Xenopus oocytes; holding potential -100 mV; baseline: 1 mM L-glutamate response).
With `CCOC(=O)C(CC)(CC)NC(=O)c1ccc(C2CC2)c(Cc2ccc(F)cc2)n1` the EC50 was 1.9 nM (Cnr2; cAMP, agonist).
With `CC1(C)C(C=C(Cl)Cl)C1C(=O)OCc1c(F)ccc(F)c1F` (stereo not drawn) the EC50 was 4900 nM (Voltage-gated sodium channel; membrane potential, activator, FLIPR; HEK293).
`CCOC(=O)[C@](CC)(CCCSCCOCCOCCNC(=O)c1ccc(-c2c3ccc(=N)c(S(=O)(=O)O)c-3oc3c(S(=O)(=O)O)c(N)ccc23)c(C(=O)O)c1)NC(=O)c1ccc(C2CC2)c(Cc2ccc(F)cc2)n1` has an EC50 of 30.2 nM (Cnr2; cAMP, agonist).
`CC(CCC(=O)NCC(=O)O)C1CCC2C3C(O)CC4CC(OS(=O)(=O)O)CCC4(C)C3CC(O)C12C` (stereo not drawn) gave an EC50 of greater than 200000 nM (G-protein coupled receptor 39; calcium signal, agonist, fluorescence).
For `Cc1cc(O)cc(C)c1C[C@H](N)C(=O)N[C@H](CCCNC(=N)N)C(=O)N[C@@H](Cc1ccccc1)C(=O)N(C)CC(=O)N(C)Cc1cc(C(F)(F)F)cc(C(F)(F)F)c1`, the EC50 was greater than 21000 nM (OPRD1 (Homo sapiens, UniProt P41143, D128A); agonist).
`CC(CCC(=O)O)C1CCC2C3C(O)CC4CC(OS(=O)(=O)O)CCC4(C)C3CC(O)C12C` (stereo not drawn) has an EC50 of greater than 200000 nM (G-protein coupled receptor 39; calcium signal, agonist, fluorescence).
With `CCN(Cc1ccccc1)C(=O)CCc1nc(CN2CCN(C(=O)Cc3ccc(OC)c(OC)c3)CC2)no1` the EC50 was 162 nM (Sodium channel protein type 11 subunit alpha (Scn11a, Rattus norvegicus, UniProt O88457); activation V1/2 shift, activator, whole-cell patch clamp; rat DRG neurons, NaV1.9 current).
With `CC1(C)C(C=C(Cl)Cl)C1C(=O)OCc1c(F)c(F)c(F)c(F)c1F` (stereo not drawn) the EC50 was 741 nM (Voltage-gated sodium channel; membrane potential, activator, FLIPR; HEK293).
For `O=C1NC2(CC2)COc2ncc(F)cc2[C@H]2COCCN2c2ccn3ncc1c3n2`, “organ-to-body weight ratio” read 2.94 ± 0.174% (Sprague-Dawley rat, female, liver; oral, 10 mg/kg/day, 4 weeks dosing, end of recovery).
`CC(C)[C@H](NC(=O)[C@@H]1CSSC(C)(C)[C@H](NC(=O)[C@@H](N)CC(=O)O)C(=O)N[C@@H](Cc2ccccc2)C(=O)N[C@@H](Cc2c[nH]c3ccccc23)C(=O)N[C@@H](CCCCN)C(=O)N[C@@H](Cc2ccc(O)cc2)C(=O)N1)C(=O)O` has an EC50 of 2.51 nM (UTS2R (Homo sapiens, UniProt Q9UKP6, L156A); IP1 accumulation, agonist, HTRF; HEK293T cells; 1 h, 37 °C).
For `CCCC[C@H](NC(C)=O)C(=O)N[C@H]1CCC(=O)NCCC[C@@H](C(=O)N[C@@H](C(=O)N2CCC[C@@H]2C(N)=O)C(C)C)NC(=O)[C@H](Cc2c[nH]c3ccccc23)NC(=O)[C@H](CCCNC(=N)N)NC(=O)[C@@H](Cc2ccc(F)cc2)NC(=O)[C@H](Cc2c[nH]cn2)NC1=O`, the EC50 was 0.042 nM (MC4R; cAMP, agonist).
The EC50 of `CC1(C)C(C=C(Cl)Cl)C1C(=O)OCc1ccccc1` (stereo not drawn) is reported as greater than 50000 nM (Voltage-gated sodium channel; membrane potential, activator, FLIPR; HEK293 expressing house fly VGSC; extrapolated).
`COc1ccccc1-c1n[nH]c2nc(NC3CCN(C(=O)Cc4ccc(F)cc4F)CC3)ncc12` has a relative abundance of 1.09 (bead binding, competition bead pull-down, measured: LINJ.31.2210; Leishmania donovani axenic amastigote extract; 10 µM; baseline: vehicle).
`CC[C@H](C)[C@H](NC(=O)[C@H](Cc1ccccc1)NC(=O)[C@H](CCC(=O)O)NC(=O)[C@H](CCCNC(=N)N)NC(=O)[C@@H](NC(=O)[C@H](C)NC(=O)[C@H](CCC(=O)O)NC(=O)[C@H](CCC(=O)O)NC(=O)[C@H](CCC(=O)O)NC(=O)[C@H](CC(C)C)NC(=O)[C@H](Cc1ccc(O)cc1)NC(=O)[C@H](CCCCN)NC(=O)[C@H](CO)NC(=O)[C@H](CC(C)C)NC(=O)[C@H](CC(=O)O)NC(=O)[C@H](CO)NC(=O)[C@@H](NC(=O)[C@H](Cc1ccccc1)NC(=O)[C@@H](NC(=O)CNC(=O)[C@H](CCC(N)=O)NC(=O)[C@@H](CO)NC(=O)[C@@H](N)Cc1c[nH]cn1)[C@@H](C)O)[C@@H](C)O)C(C)C)C(=O)N[C@@H](C)C(=O)N[C@@H](Cc1c[nH]c2ccccc12)C(=O)N[C@@H](CC(C)C)C(=O)N[C@@H](CCCCN)C(=O)N[C@@H](CC(N)=O)C(=O)NCC(=O)NCC(=O)N1CCC[C@H]1C(=O)N[C@@H](CO)C(=O)N[C@@H](Cc1ccc(O)cc1)C(=O)N[C@@H](CO)C(=O)N[C@@H](CCSC)C(=O)N[C@@H](CCC(=O)O)C(=O)N[C@@H](Cc1c[nH]cn1)C(=O)N[C@@H](Cc1ccccc1)C(=O)N[C@@H](CCCNC(=N)N)C(=O)N[C@@H](Cc1c[nH]c2ccccc12)C(=O)NCC(=O)N[C@@H](CCCCN)C(=O)N1CCC[C@H]1C(=O)N[C@H](C(N)=O)C(C)C` gave an EC50 of 636 nM (MC4R; cAMP, agonist).
`CCCCC/C=C\C/C=C\C/C=C\C/C=C\CCCC(=O)NCCc1ccc(O)c(O)c1` gave an EC50 of 220 ± 50 nM (Trpv1 (Mus musculus, UniProt Q704Y3, E571A); ion current, agonist, whole-cell patch clamp; +80 mV, about 24 °C).
The EC50 of `O=C(O)CCn1c(=O)oc2cc(Cl)c(Cl)cc21` is reported as greater than 100000 nM (ADRA2C (Homo sapiens, UniProt P18825); agonist).
